Results of several laboratories.
Parts stem from different laboratories: compare values within a part only. Positions count from the first letter of the parent shown.
Chain of UniProt Q8IYT8 (whole entry, looked up): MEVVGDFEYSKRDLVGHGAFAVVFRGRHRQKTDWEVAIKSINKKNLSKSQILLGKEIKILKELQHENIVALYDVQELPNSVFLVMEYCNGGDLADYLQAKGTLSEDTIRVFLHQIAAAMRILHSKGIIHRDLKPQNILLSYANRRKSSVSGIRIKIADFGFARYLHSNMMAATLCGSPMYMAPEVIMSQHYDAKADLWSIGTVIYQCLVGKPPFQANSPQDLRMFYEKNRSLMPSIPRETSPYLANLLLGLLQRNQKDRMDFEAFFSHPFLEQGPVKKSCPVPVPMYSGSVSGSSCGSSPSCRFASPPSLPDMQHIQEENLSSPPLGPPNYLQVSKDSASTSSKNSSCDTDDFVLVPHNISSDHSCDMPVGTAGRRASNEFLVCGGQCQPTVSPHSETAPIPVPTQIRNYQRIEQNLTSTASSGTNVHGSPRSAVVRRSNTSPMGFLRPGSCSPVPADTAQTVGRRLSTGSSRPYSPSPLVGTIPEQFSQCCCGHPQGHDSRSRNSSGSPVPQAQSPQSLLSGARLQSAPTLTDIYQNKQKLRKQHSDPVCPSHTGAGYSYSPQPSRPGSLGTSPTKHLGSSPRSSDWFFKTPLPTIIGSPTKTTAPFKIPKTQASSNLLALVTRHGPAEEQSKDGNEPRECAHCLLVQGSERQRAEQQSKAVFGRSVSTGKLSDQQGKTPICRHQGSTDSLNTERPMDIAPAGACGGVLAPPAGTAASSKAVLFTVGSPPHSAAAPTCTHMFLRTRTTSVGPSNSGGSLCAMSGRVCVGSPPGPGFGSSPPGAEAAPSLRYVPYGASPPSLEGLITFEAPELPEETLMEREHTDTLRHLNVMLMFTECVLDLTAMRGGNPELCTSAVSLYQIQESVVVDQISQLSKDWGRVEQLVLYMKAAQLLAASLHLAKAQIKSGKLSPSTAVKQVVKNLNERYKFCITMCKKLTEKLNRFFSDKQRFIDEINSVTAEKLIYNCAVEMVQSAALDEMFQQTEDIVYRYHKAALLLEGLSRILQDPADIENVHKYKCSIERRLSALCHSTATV

Set 1 — target: CCNA2, cyclin fold, Cln2 fusion (human); method: yeast growth competition, sequencing; matrix: yeast; setting: strong parent motif; reference: not given; direction: higher = stronger binding
Starting sequence: CDC6 docking peptide (human); TLKGRRLVFDNQL; partner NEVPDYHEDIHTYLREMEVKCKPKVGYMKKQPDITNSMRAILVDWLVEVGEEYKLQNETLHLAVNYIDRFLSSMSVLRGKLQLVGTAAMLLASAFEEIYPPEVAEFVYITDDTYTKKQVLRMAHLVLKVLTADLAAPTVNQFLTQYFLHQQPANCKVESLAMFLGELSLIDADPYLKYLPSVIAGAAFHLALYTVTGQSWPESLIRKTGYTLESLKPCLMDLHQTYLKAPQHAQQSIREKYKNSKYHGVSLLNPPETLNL
Variant	normalised enrichment score
TIKGRRLVFDNQL [L2I]	2.1
TLKGRRLVFDNQS [L13S]	3.44
TLKGRRLVTDNQL [F9T]	0.945
TLKYRRLVFDNQL [G4Y]	0.532
TLKGARAVFDNQL [R5A L7A]	-0.0845
TLKGRRTVFDNQL [L7T]	0.498
WLKGRRLVFDNQL [T1W]	2.93
TLKGRRLVFDVQL [N11V]	2.63

Set 2 — method: RNA Bind-n-Seq; form: RNA; matrix: in vitro; concentration: not given; setting: RNA with constant flanks, ends assumed; reference: input RNA pool; direction: higher = stronger binding
Target: RING finger protein unkempt homolog, zinc fingers 1-6, GST-SBP tag (UNK, Homo sapiens, UniProt Q9C0B0, residues 30-357)
All sequences stand within: GGGAGUUCUACAGUCCGACGAUC … CAACAGAGGAUUGAGCAUCA
Residues (chain): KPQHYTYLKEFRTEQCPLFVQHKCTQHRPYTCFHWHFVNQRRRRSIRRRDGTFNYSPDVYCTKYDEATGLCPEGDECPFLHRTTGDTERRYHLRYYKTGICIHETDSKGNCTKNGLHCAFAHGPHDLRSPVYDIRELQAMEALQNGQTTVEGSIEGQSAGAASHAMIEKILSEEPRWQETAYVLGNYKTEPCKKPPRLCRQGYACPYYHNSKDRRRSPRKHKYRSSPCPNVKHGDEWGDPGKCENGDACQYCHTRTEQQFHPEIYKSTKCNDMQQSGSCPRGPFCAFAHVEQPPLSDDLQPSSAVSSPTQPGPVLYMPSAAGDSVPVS
Oligonucleotide	bound/input enrichment [ratio]
GAUAAAGAUCCCAACAAGAAGAUGAAACGAAACUUAAGGAAAAUUCUAGAUAGUAAAGCAACCGACCUUAUGAAUGCACUAAUGAGAUUAAAUCAGAUCAGGCCCGGGCUUCAGUAUAAG	0.853
UGUCAGCAGAAACAUUUAAUGUGAAAUAAUUCUGUAUUUCUGAGACAAGAUCAACACAGCCGUUCUUUACAUUGAGCUGAGGUGAAUGUAUACUUAAAAAUACUCUAUUUUCUUUUUAUA	0.132
CUUCAGAAGAGUAAUGGUGUACUUCCUGAAUUAUUUCAGUGUCAUGGUACUGCAGAUGAGUCCGUUCUUCAUUCUUGGGCAGAAGAGACAAACUCAAUGUUAAAAUCUCUAGGAGUGACC	0.0905
GGGCUGCAGACAUGUAGGAUGGAGUGAGGUGUGUUUCCUGUCACCCUCCACUCCCCAGCUUCCGUUUCAUAAAUGUAGUUUUAGAUCCCUCACUGCUUGGUUCCCAAAGCCUUAUUACUG	2
GAUCUCGGUGGGCAUGAGCAAGCACGUCGCGUUUGGAAAAAUUAUCUCCCAGCGAUUAAUGGCACCGUUUUUCUGGUGGACUGUGCGGAUCAUUCUCGUCUCAUGGAAUCCAAAGUUGAG	0.165
UACAUCGCAUUAGACAUUUUUACAUGAGAAAAGUCAAAUUUACUCAACAGAAUUACCAUGACCGACUUUCACAAAUUCUAACAGAUUUCCCCAAAUUGGAUGAUAUUCAUCCGUUCUAUG	1.79
AAACAAGAGACCCUCCCUCCCGGCCAUGUUCCUUGCGGCAGUUGGUGAACUGAGUCUGUAAACCGGGCCCUACCGGUUUUUGUUUUUGUUUUGUUUUGUUUUUCUGUAGGCCUGCAUUGU	0.488
UGUCUGACUUGCUGCUCCAGGGAUGUCAUAGUUAAAGUUGACCAGAUCUGUCACAAAAACCGCAUCAAGUUCUUUACAGGAGAUGUUUUUGGCUACCAUGGAUACACAUUUGCCAAUCUA	0.116

Single results of other studies
SMILES	target	assay	conditions	how to read	quantity	value
CNC(=O)Nc1ccc2c(c1)[C@@]1(CC2)OC(=O)N(CC(=O)N(Cc2ccc(F)cc2)[C@@H](C)C(F)(F)F)C1=O	Dual specificity mitogen-activated protein kinase kinase 1 (MAP2K1, Homo sapiens, UniProt Q02750)	cell-free assay, competition with immobilised ligand	1 µM	–	remaining binding	98%
Cc1nc(Nc2ncc(C(=O)Nc3c(C)cccc3Cl)s2)cc(N2CCN(CCO)CC2)n1	Serine/threonine-protein kinase ULK2 (ULK2, Homo sapiens, UniProt Q8IYT8)	enzyme activity, inhibitor	0.5 µM	reference: control	remaining activity	94.2%
